Published values of several laboratories.
Protocols differ between the studies behind these lines. ± marks the error that the study gave.

CS(C)(=O)=Nc1ccc(-c2ccc(-c3nc4cc(O[C@@H]5CO[C@H]6[C@@H]5OC[C@H]6O)[nH]c4cc3F)cc2)cc1 — hepatic cholesterol (ob/ob mouse, AMLN diet NASH model; oral, 5 mg/kg daily, 8 weeks; baseline: vehicle): decreased
CC[C@H](C)[C@H](NC(=O)[C@@H](NC(=O)[C@H](CC(=O)O)NC(C)=O)[C@@H](C)O)C(=O)N[C@@H](CCCNC(=N)N)C(=O)N[C@@H](CC(C)C)C(=O)N[C@@H](CC(C)C)C(=O)N[C@@H](Cc1ccccc1)C(=O)N[C@@H](CCC(N)=O)C(=O)N[C@@H](CC(C)C)C(=O)N[C@@H](CCSC)C(=O)N[C@@H](CCCNC(=N)N)C(=O)N1CCC[C@H]1C(=O)N1CCC[C@H]1C(=O)N[C@@H](CC(N)=O)C(=O)N[C@@H](CCSC)C(=O)N[C@H](C(=O)N1CCC[C@H]1C(=O)N[C@@H](C)C(=O)N[C@H](C(=O)N[C@@H](CC(N)=O)C(=O)N[C@@H](C)C(N)=O)C(C)C)[C@@H](C)O — α4β7− CCR9+ cells (refers to: HA-41 tetramer; antigen-experienced tetramer+ CD4 T cells, healthy adults, HLA-DRB1*0101; dose not given): 0%
CC1(O)CC23CC(O)C4(O)C(C5OC5C4(C)C)C(C)(O)C2CCC1C3O (stereo not drawn) — licking time (formalin phase II; mouse formalin test; oral, 0.10 mg/kg, 0.25 h; baseline: saline): active
CCOc1cncc(-c2ccc(NC(=O)C3(c4ccnc(NS(=O)(=O)C5CC5)n4)CCOCC3)nc2)n1 — selectivity ratio (enzyme activity, inhibitor, RapidFire mass spectrometry; dog; baseline: CTPS1 over CTPS2): 840
CC[C@H](C)[C@H](NC(=O)[C@H](Cc1c[nH]c2ccccc12)NC(=O)[C@H](CCCNC(=N)N)NC(=O)[C@H](CCCCN)NC(=O)[C@H](CC(C)C)NC(=O)[C@H](CC(=O)O)NC(=O)[C@H](Cc1ccccc1)NC(=O)[C@H](C)NC(=O)[C@H](Cc1ccc(O)cc1)NC(=O)[C@H](CC(N)=O)NC(=O)[C@H](Cc1ccc(O)cc1)NC(=O)[C@H](CCCNC(=N)N)NC(=O)[C@H](Cc1ccc(O)cc1)NC(=O)[C@H](Cc1ccc(O)cc1)NC(=O)[C@@H](NC(=O)[C@H](CC(C)C)NC(=O)[C@H](C)NC(=O)[C@H](CC(N)=O)NC(=O)[C@H](Cc1ccc(O)cc1)NC(C)=O)[C@@H](C)CC)C(=O)N[C@@H](Cc1ccc(O)cc1)C(=O)N[C@@H](CC(C)C)C(N)=O — α4β7− CCR9− cells (refers to: HA-52 tetramer; antigen-experienced tetramer+ CD4 T cells, healthy adults, HLA-DRB1*0101; dose not given): 57.1%
CCN(Cc1ccccc1)C(=O)CCc1nc(CN2CCN(C(=O)Cc3ccc(OC)c(OC)c3)CC2)no1 — action potential threshold (current clamp; L4-L6 DRG neurons, rat CCI model; 10 µM, together with: 500 pA current injection): -4.3 ± 2.88 mV
COC[C@@H](NC(C)=O)C(=O)NCc1ccc(OCc2ccc(Cl)cc2)cc1 — licking time (formalin test, phase II; mouse; ip, 7.0 mg/kg; baseline: vehicle): 103%
CC(C)C[C@@H]1NC(=O)[C@H](C(C)C)NC(=O)[C@H](CO)NC(=O)CNC(=O)CNC(=O)[C@H](CCCNC(=N)N)NC(=O)[C@@H]2CCCN2C(=O)[C@@H](NC(=O)CC[C@H](NC(=O)c2ccc(N(C)Cc3cnc4nc(N)nc(N)c4n3)cc2)C(=O)O)C(C)(C)SSC[C@@H](C(=O)O)NC(=O)CNC(=O)[C@H]([C@@H](C)O)NC(=O)[C@H](C(C)C)NC1=O — spleen weight (rat adjuvant arthritis; iv, 0.05 mg/kg once daily, day 14): 0.452 ± 0.0139 g
Cc1cc(O)cc(C)c1CC(N)C(=O)NC1CCNc2c(CN3CCCCC3)cc(Cc3ccccc3)cc21 (stereo not drawn) — antinociception (warm water tail withdrawal; male C57BL/6 mice; intraperitoneal, 10 mg/kg): inactive
N=C(N)NCCC[C@H]1NC(=O)[C@H](CCCN)NC(=O)[C@@H](Cc2c[nH]cn2)NC(=O)[C@H](Cc2ccc(O)cc2)NC(=O)[C@@H](Cc2ccc(O)cc2)NC(=O)[C@H](Cc2ccccc2)NC(=O)[C@@H](Cc2c[nH]c3ccccc23)NC(=O)[C@H](CO)NC1=O — pre-beta HDL concentration (ELISA; human plasma; concentration not given): 63 ± 10 µg/mL
CC[C@H](C)[C@H](NC(=O)[C@H](C)NC(=O)CNC(=O)[C@@H](N)CCSC)C(=O)N[C@@H](C)C(=O)N[C@@H](CCCCN)C(=O)N[C@@H](CC(C)C)C(=O)N[C@H](C(=O)N[C@@H](C)C(=O)N[C@@H](CCCCN)C(=O)N[C@@H](Cc1ccccc1)C(=O)NCC(=O)N[C@@H](Cc1c[nH]c2ccccc12)C(=O)N1CCC[C@H]1C(=O)N[C@@H](Cc1ccccc1)C(=O)N[C@H](C(=O)N[C@@H](CCCCN)C(=O)N[C@@H](CCCCN)C(=O)N[C@@H](Cc1ccccc1)C(=O)N[C@@H](Cc1ccc(O)cc1)C(=O)N[C@@H](CCCCN)C(=O)N[C@@H](CCC(N)=O)C(=O)N[C@@H](CCCNC(=N)N)C(=O)N[C@@H](CCSC)C(=O)N[C@@H](CCC(N)=O)C(=O)N[C@@H](Cc1ccccc1)C(=O)N[C@H](C(=O)NCC(=O)N[C@@H](CCC(N)=O)C(=O)NCC(=O)N[C@@H](Cc1c[nH]c2ccccc12)C(=O)N[C@H](C(=O)N[C@H](C(=O)N[C@@H](CC(=O)O)C(=O)N[C@@H](CCC(N)=O)C(=O)N[C@H](C(=O)N[C@@H](CCC(=O)O)C(=O)N[C@@H](CCCCN)C(=O)N[C@@H](Cc1c[nH]c2ccccc12)C(=O)N[C@@H](CC(C)C)C(=O)N[C@@H](CCCCN)C(=O)N[C@@H](CCCNC(=N)N)C(=O)N[C@@H](Cc1c[nH]cn1)C(=O)O)[C@@H](C)CC)[C@@H](C)CC)[C@@H](C)O)[C@@H](C)CC)[C@@H](C)CC)C(C)C — calcein release (PG/PE 1:1 liposomes; MIC; baseline: Triton X-100): 24.5 ± 1%
Cc1cc(O)cc(C)c1C[C@H](N)C(=O)N[C@H](C)C(=O)N[C@@H](Cc1ccccc1)C(=O)N[C@@H](Cc1ccccc1)C(N)=O — analgesic ED50 (tail flick; C57BL/6 mice; intracerebroventricular): 0.1 µg
CN(C)CCN(Cc1ccccc1)C(=O)c1cc(-c2ccc(F)cc2)n2nc(C(C)(C)C)cc2n1 — CAA area (Tg6799 mouse, cortex; dose not given, 4 months; baseline: cortex): 0.025 ± 0.006%
Cc1ccc(/C=C/C(=O)O)cc1-c1cc2c(cc1C)C(C)(C)CCC2(C)C — log2 fold change (RNA sequencing, refers to: Lrrc4c mRNA; rat, brain; dose not given, 24 h, single dose; baseline: vehicle): -0.5
C[C@]12CC[C@H](O)CC1CCC1C2[C@H](O)C(=O)[C@]2(C)[C@@H](c3ccc(=O)oc3)CC[C@]12O (stereo partly drawn) — Vmax (sulfation, substrate; pooled human liver cytosol): 0.069 ± 0.001 nmol/min/mg

A few entries again:
CC[C@H](C)[C@H](NC(=O)[C@H](Cc1c[nH]c2ccccc12)NC(=O)[C@H](CCCNC(=N)N)NC(=O)[C@H](CCCCN)NC(=O)[C@H](CC(C)C)NC(=O)[C@H](CC(=O)O)NC(=O)[C@H](Cc1ccccc1)NC(=O)[C@H](C)NC(=O)[C@H](Cc1ccc(O)cc1)NC(=O)[C@H](CC(N)=O)NC(=O)[C@H](Cc1ccc(O)cc1)NC(=O)[C@H](CCCNC(=N)N)NC(=O)[C@H](Cc1ccc(O)cc1)NC(=O)[C@H](Cc1ccc(O)cc1)NC(=O)[C@@H](NC(=O)[C@H](CC(C)C)NC(=O)[C@H](C)NC(=O)[C@H](CC(N)=O)NC(=O)[C@H](Cc1ccc(O)cc1)NC(C)=O)[C@@H](C)CC)C(=O)N[C@@H](Cc1ccc(O)cc1)C(=O)N[C@@H](CC(C)C)C(N)=O — α4β7− CCR9− cells (refers to: HA-52 tetramer; antigen-experienced tetramer+ CD4 T cells, healthy adults, HLA-DRB1*0101; dose not given): 57.1%
